Published values pooled from the literature.
Numbers after ± are the reported error.

CC1(C)OB(c2ccc(CNC(=O)c3cn(Cc4ccc(F)cc4)cc(O)c3=O)cc2)OC1(C)C  CC50 (HFF; cell growth or viability, MTS; 7 days): > 50 µM
C1=[N+]2CCCC[N+]3=Cc4ccc5[n]4[Au-]23[n]2c1ccc2-c1nc2ccccc2nc1-5.F[P-](F)(F)(F)(F)F  CC50 (renal cancer cell lines; NCI60 panel mean): 89 µM
CC(=N)N1CC23C4C5CC5C5C4C4C2C2CC2C4C53C1 (stereo not shown)  CC50 (dog cells; cytotoxicity; 3 (unit not given)): 31 µM
NC(Cc1cc(O)c(O)cc1O)C(=O)O (racemic)  CC50 (Huh-7, mock-infected; MTS; 4 (unit not given)): 30 ± 1.8 µM
CC(C)C[C@H](NC(=O)[C@H](C)NC(=O)CNC(=O)[C@@H](NC(=O)[C@@H](NC(=O)[C@H](CCCCN)NC(=O)[C@H](CCCCN)NC(=O)[C@H](CC(C)C)NC(=O)[C@H](CC(C)C)NC(=O)[C@H](CCCCN)NC(=O)[C@H](CC(C)C)NC(=O)[C@H](CC(C)C)NC(=O)[C@@H](N)CCCCN)C(C)C)C(C)C)C(=O)NCC(N)=O  CC50 (HDMEC; cytotoxicity): 67 µM
CC(C)C[C@@H]1NC(=O)[C@H](CCCCN)NC(=O)[C@H](CC(C)C)NC(=O)[C@@](C)(NC(=O)[C@H](Cc2ccccc2)NC(=O)[C@H](Cc2ccc(O)cc2)NC(=O)[C@H](C)NC(=O)[C@@H](N)[C@@H](C)O)CCC=CCC[C@@](C)(C(=O)NCC(=O)N[C@@H](CCCNC(=N)N)C(=O)N[C@@H](Cc2c[nH]c3ccccc23)C(N)=O)NC1=O  CC50 (MT-4): 40 µM
O=C(NCc1ccc(Cl)cc1Cl)c1cn(Cc2ccc(F)cc2)cc(O)c1=O  CC50 (HFF; cell growth or viability, MTS; 7 days): 3.7 µM
CC(=N)N1CC23C4CCC5C4C4C2CCC4C53C1  CC50 (dog cells; cytotoxicity; 3 (unit not given)): > 100 µM
C=CC1=C(C)c2cc3nc(cc4[nH]c(cc5[nH]c(cc1n2)c(C)c5C=C)c(C)c4CCC(=O)OCCCCCCCCCC)C(CCC(=O)O)=C3C  CC50 (dog cells): 121 ± 2.18 µM
CN1CC23C4C5CC5C5C4C4C2C2CC2C4C53C1 (stereo not shown)  CC50 (dog cells; cytotoxicity; 3 (unit not given)): ≥ 20 µM
O=C(O[C@@H]1Cc2c(O)cc(O)cc2O[C@@H]1c1cc(O)c(O)c(O)c1)c1cc(O)c(O)c(O)c1  CC50 (Huh-7, mock-infected; MTS; 4 (unit not given)): 23.2 ± 7.5 µM
CCN(CC)CCOC1CCC2(C)C(=CCC3C4CCC(=O)C4(C)CCC32)C1 (stereo not shown)  CC50 (MRC5; cell growth or viability, MTT; 24 h): 74.4 µM
N=C(N)N1CC23C4C5CC5C5C4C4C2C2CC2C4C53C1 (stereo not shown)  CC50 (dog cells; cytotoxicity; 3 (unit not given)): ≥ 35 µM
COc1cc(OC)cc([C@@H]2c3cc(/C=C/c4cc(O)cc(O)c4)ccc3O[C@H]2c2ccc(O)cc2)c1  CC50 (dog cells; 24 (unit not given)): 74.5 µM
N=C(N)NCC12C3CCC4C3C3C(CCC31)C42  CC50 (dog cells; cytotoxicity; 3 (unit not given)): 45 µM
CC[C@H](C)[C@@H]1NC(=O)[C@H](C)NC(=O)[C@H](C)NC(=O)[C@H]([C@@H](C)O)NC(=O)[C@H](Cc2ccccc2)NC(=O)[C@@H]2CSSC[C@@H]3NC(=O)[C@H](C(C)C)NC(=O)[C@H](CCCCN)NC(=O)[C@H](CO)NC(=O)[C@H](CCCCN)NC(=O)[C@@H]4CSSC[C@H](NC(=O)[C@H](CO)NC(=O)[C@H](CCC(=O)O)NC(=O)CNC(=O)[C@H](CSSC[C@H](NC(=O)CNC1=O)C(=O)N[C@@H](C)C(=O)N4)NC(=O)[C@@H]1CCCN1C(=O)[C@H](Cc1ccccc1)NC(=O)CNC(=O)[C@H](CC(N)=O)NC(=O)[C@H](CCCCN)NC(=O)[C@H](Cc1ccc(O)cc1)NC3=O)C(=O)N[C@@H](C(C)C)C(=O)N[C@@H](Cc1ccc(O)cc1)C(=O)N[C@@H](CC(C)C)C(=O)N1CCC[C@H]1C(=O)N2  CC50 (HeLa; resazurin; 24 h): 1.26 ± 0.08 µM

A few entries again:
N=C(N)N1CC23C4C5CC5C5C4C4C2C2CC2C4C53C1 (stereo not shown)  CC50 (dog cells; cytotoxicity; 3 (unit not given)): ≥ 35 µM
COc1cc(OC)cc([C@@H]2c3cc(/C=C/c4cc(O)cc(O)c4)ccc3O[C@H]2c2ccc(O)cc2)c1  CC50 (dog cells; 24 (unit not given)): 74.5 µM
N=C(N)NCC12C3CCC4C3C3C(CCC31)C42  CC50 (dog cells; cytotoxicity; 3 (unit not given)): 45 µM
